Experimental data collected from several papers.
Each line is one published result; not all experiments were run side by side. ± gives the spread as reported.
Cell line: PC-3

SMILES | assay | conditions | scale | endpoint | value
CC1=C(C2=C(C)C(=O)c3c(cc(O)c(O)c3Cc3ccccc3)C2=O)C(=O)c2cc(O)c(O)c(Cc3ccccc3)c2C1=O (racemic) | cell growth or viability, ATP luminescence | 72 h | – | EC50 | 300 nM
CN(C)c1cccc2c(S(=O)(=O)NCCCCCC(=O)NO)cccc12 | propidium iodide flow cytometry | 1.54 µM | – | cells in S phase | 19.9%
COc1cc(CNC(=O)C[C@H](C)CCC=C(C)C)ccc1OCc1cn(-c2cccc([N+](=O)[O-])c2)nn1 | SRB | 10 µM, 48 h | – | growth percent | 75.7%
COC(C(=NOCC(=O)Nc1cncnc1)C(O)C(C)O)C1Cc2cc3cc(OC4CC(OC5CC(O)C(O)C(C)O5)C(O)C(C)O4)c(C)c(O)c3c(O)c2C(=O)C1OC1CC(OC2CC(OC3CC(C)(O)C(O)C(C)O3)C(O)C(C)O2)C(O)C(C)O1 (centres unmarked) | cell growth or viability | 72 h | – | GI50 | 985 nM
COc1cc(CNC(=O)C[C@H](C)CCC=C(C)C)ccc1OCc1cn(-c2cccc(Cl)c2)nn1 | SRB | 10 µM, 48 h | – | growth percent | 76.3%
COC(C(=NOCC(=O)O)C(O)C(C)O)C1Cc2cc3cc(OC4CC(OC5CC(O)C(O)C(C)O5)C(O)C(C)O4)c(C)c(O)c3c(O)c2C(=O)C1OC1CC(OC2CC(OC3CC(C)(O)C(O)C(C)O3)C(O)C(C)O2)C(O)C(C)O1 (centres unmarked) | cell growth or viability | 72 h | – | GI50 | 1810 nM
C[N+]1(CC(=O)OC2CCCCCCCCCCC2)CCCCC1 | cell viability, CellTiter Blue | 96 h | – | ED70 | 12.5 µM
C=C1CC[C@@H]2[C@](C)(CO)[C@H](O)CC[C@@]2(C)[C@@H]1/C=C/C1=CCOC1=O | cell growth or viability, MTT | 20 µM, 48 h | – | inhibition | 0%
Cc1nn(-c2ccc(S(=O)(=O)N[C@@H](CO)CC(C)C)cc2)c2nn3nnnc3nc12 | PI/Hoechst staining | 1 µM, 24 h | – | necrotic cells | 42.5 ± 3.53%
CC12COC(c3ccccc3)OC1CCC1(C)C(C=CC3=CCOC3=O)C(CO)=CCC21 (centres unmarked) | cell growth or viability, MTT | 20 µM, 48 h | – | inhibition | 0%
CCCCCCCCCCCC(=O)N=C(N)NCCC[C@H](NC(=O)[C@H](CC(C)C)NC(=O)[C@@H](CC(C)C)NC(=O)[C@H](Cc1ccc(O)cc1)NC(=O)[C@H](CO)NC(=O)[C@H](Cc1c[nH]c2ccccc12)NC(=O)[C@H](Cc1c[nH]cn1)NC(=O)[C@@H]1CCC(=O)N1)C(=O)N1CCC[C@H]1C(=O)NCC | WST-1 | 50 µM, 4 days, 2D monolayer, daily dosing | reference: control | cell proliferation | 75%

A few entries again:
SMILES | assay | conditions | scale | endpoint | value
COC(C(=NOCC(=O)O)C(O)C(C)O)C1Cc2cc3cc(OC4CC(OC5CC(O)C(O)C(C)O5)C(O)C(C)O4)c(C)c(O)c3c(O)c2C(=O)C1OC1CC(OC2CC(OC3CC(C)(O)C(O)C(C)O3)C(O)C(C)O2)C(O)C(C)O1 (centres unmarked) | cell growth or viability | 72 h | – | GI50 | 1810 nM
C[N+]1(CC(=O)OC2CCCCCCCCCCC2)CCCCC1 | cell viability, CellTiter Blue | 96 h | – | ED70 | 12.5 µM
